Measured values of several laboratories.
Numbered parts are unrelated; each lists some results of a single study. Positions count from the first letter of the parent shown.

Sample 1
Target: CRIPT, C-terminal peptide
Method: DHFR complementation, deep sequencing
Medium: yeast
Setting: single substitutions, model-inferred values
Relative to: wild type
Direction: higher = weaker binding
Parent: ERBIN, PDZ domain 1 (human); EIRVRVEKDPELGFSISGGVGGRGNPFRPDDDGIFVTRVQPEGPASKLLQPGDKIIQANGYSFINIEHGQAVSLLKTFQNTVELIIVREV; partner TKNYKQTSV
Change | binding free energy change
F27P | 0.963 kcal/mol
E83C | 0.0659 kcal/mol
N80V | 0.153 kcal/mol
E42T | 0.00517 kcal/mol
V4C | 0.19 kcal/mol
I85K | -0.0205 kcal/mol
E67T | -0.0808 kcal/mol
I34K | 0.0956 kcal/mol

Sample 2
Target: RING finger protein unkempt homolog, zinc fingers 1-6, GST-SBP tag (UNK, Homo sapiens, UniProt Q9C0B0, residues 30-357)
Method: RNA Bind-n-Seq
Form: RNA
Medium: in vitro
Tested at: not given
Setting: RNA with constant flanks, human-mouse chimeric sites, ends assumed
Relative to: input RNA pool
Direction: higher = stronger binding
All sequences stand within: GGGAGUUCUACAGUCCGACGAUC … CAACAGAGGAUUGAGCAUCA
Target sequence (chain): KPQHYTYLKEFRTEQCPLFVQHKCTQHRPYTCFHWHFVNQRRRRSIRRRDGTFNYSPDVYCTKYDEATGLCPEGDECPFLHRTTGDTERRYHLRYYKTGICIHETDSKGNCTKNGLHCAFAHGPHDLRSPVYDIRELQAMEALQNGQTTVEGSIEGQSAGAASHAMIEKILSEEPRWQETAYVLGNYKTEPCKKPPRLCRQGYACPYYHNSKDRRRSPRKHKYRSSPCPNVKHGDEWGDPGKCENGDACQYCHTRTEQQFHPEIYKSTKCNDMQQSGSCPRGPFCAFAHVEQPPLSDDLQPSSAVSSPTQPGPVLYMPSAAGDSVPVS
Strand | bound/input enrichment
UCAUUUUUCUCUUUUCUUUCUUUCCUUAAAAGCCUAACUAAAGAUUAGUAAGAAAAGAAAACAGAAGCCAUGUUUCGAAGACCUGUGUUACAGGUAUUUCGUCAGUUUGUAAGACAUGAG | 0.162 ratio
UCAAGGGGGCACUGCAGAGCCAUGCCUUUCCUUGACAUACAGAAAAAGCUGGGCAUCAACAUAGAUCGGCACUUUAUGUUCCUAAGCGCAGAACAGCCCUAUAAGAACGCCGCUCGGUGC | 0.0827 ratio
UGGCGCCUGCGCUCCCCACUCGUGUUUUUAAGUGUAUUUUUAUAAGAUACAUGUAUUUACAAUUGAGUUUUUGAUUAAUAAUGCUGAAAACAUCUCUGAGAUUAUGAAAAAUGUUUCAAU | 0.0986 ratio
AUGGAACAUUUCGAUGCGUCACUCAGUACCUAUUUCAAGGCCUUCCUGGGCCCCCGAGAUACAAGAGUCAAAGGAUGGUUCCUCCUGGACAAUUAUAUCCCUACGUUUGUCUGUUCUGUU | 0.0941 ratio
CAGCCUCAGAGCCCAGACUUCCUGGAUAUUACCAACCCUAAAGCGGUAUUAGAAAAUGCACUUAGGAACUUCGCCUGUCUGACGACUGGAGAUGUGAUUGCCAUCAACUACAAUGAGAAG | 0.686 ratio
UUACCCGAGAACGAGGAUGAGCUGGAGAGCACCAAUAGGCGCUACACCAAGAGGGACUGCAGCACUUUCCUCAGAACUAGUGAGACGGGCAUCGUGGACCAGGUCAUGGUCACUCUCAAC | 0.134 ratio
GUGCCCUUCUCGCUGCUGCGGAGCCCGAGCUGGGAACCAUUCCGGGACUGGUACCCUGCACACAGCCGCCUCUUCGACCAGGCCUUCGGGGUGCCCCGGUUGCCCGAGGAGUGGUCGCAG | 0.0711 ratio

Sample 3
Target: Sal-like protein 4, full length isoform A (SALL4, Homo sapiens, UniProt Q9UJQ4, residues 1-1053)
Chain of UniProt Q9UJQ4 (whole entry, looked up): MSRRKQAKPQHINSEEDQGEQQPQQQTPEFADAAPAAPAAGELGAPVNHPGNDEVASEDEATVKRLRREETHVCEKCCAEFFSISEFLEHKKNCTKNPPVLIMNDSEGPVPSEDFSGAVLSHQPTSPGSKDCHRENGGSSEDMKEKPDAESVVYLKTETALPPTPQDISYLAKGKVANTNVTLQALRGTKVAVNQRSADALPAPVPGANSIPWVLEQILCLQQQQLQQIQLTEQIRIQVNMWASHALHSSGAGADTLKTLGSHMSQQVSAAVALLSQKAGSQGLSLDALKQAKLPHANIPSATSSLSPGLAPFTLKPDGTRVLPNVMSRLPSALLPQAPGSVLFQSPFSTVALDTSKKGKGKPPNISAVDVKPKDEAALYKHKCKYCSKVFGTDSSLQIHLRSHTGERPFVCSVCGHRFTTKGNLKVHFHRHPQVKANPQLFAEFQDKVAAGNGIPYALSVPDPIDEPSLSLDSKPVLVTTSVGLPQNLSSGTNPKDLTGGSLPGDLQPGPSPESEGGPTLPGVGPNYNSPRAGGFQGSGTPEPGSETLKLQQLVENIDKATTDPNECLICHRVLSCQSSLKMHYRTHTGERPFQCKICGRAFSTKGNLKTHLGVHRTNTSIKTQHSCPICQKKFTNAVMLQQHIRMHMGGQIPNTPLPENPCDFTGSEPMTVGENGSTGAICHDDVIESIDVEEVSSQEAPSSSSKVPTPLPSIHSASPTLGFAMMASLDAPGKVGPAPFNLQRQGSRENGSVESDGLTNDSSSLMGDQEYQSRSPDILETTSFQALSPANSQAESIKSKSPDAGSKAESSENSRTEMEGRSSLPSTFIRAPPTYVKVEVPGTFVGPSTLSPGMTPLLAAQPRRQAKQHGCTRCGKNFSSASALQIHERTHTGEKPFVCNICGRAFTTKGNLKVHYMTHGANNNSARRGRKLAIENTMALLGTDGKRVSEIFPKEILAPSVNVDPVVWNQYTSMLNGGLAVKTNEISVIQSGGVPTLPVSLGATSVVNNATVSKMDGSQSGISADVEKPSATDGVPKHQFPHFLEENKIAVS
Method: universal PBM
Form: double-stranded DNA, one strand shown
Medium: in vitro
Tested at: 600 nM
Setting: 8-mer, flanks averaged, mean of replicates
Direction: higher = stronger binding
Strand | E-score
GAATCTCA | -0.106
AACGCTCT | -0.147
AAAGGGTT | 0.0132
CTGTGGAA | -0.0651
CAGTTCTC | -0.158
ACGACTTG | -0.0538
CGTAACGC | -0.174
CCGTCCCA | -0.247
AAAGCCAA | 0.021

Single results of other studies
Substance | target | test | test system | setting | scale | endpoint | value
PhoQ, residues 284 288 289 292 302 303 SLKLQV | PhoP, residues 12 14 15 18 19 LFHKL (Escherichia coli, UniProt P23836) | Sort-seq, measured: YFP reporter | E. coli | PhoQ-PhoP variant library, added: 10 µM Mg2+ | relative to: high Mg2+ state, higher = stronger signaling | fold induction | 5.95

A few entries again (sample 3):
Strand | E-score
CTGTGGAA | -0.0651
AAAGGGTT | 0.0132
CAGTTCTC | -0.158
